Measurements pooled from the literature.
Every numbered part comes from another study and shows a few of its results, in no order.

Study 1 — technique: competition protein-binding microarray; molecule type: double-stranded DNA, one strand shown; medium: in vitro; concentration: 2 µM; with: Cbf1 competitor, 0.05 µM; reading: higher = stronger binding; shared flanks, not repeated: … GTCTTGATTCGCTTGACGCTGCTG
Target: Phosphate system positive regulatory protein PHO4, full length, GST-tagged (PHO4, Saccharomyces cerevisiae, UniProt P07270, residues 1-312)
Notes: whole 60-bp probe, lowest competitor level
Construct (chain): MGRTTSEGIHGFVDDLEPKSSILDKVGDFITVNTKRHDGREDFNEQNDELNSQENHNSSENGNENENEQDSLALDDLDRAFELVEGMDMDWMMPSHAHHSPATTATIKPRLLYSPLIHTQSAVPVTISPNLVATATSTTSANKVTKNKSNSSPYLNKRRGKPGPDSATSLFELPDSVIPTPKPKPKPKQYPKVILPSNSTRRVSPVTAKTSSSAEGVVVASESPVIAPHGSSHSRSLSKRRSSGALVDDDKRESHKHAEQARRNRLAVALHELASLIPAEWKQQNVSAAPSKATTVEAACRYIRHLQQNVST
Strand | fluorescence intensity
CGGGGTTAAGTTTTGCACGTGTTTTGCTTGCAGCAG | 16500 a.u.
GATTGGTTAAAATTGATCATGACAGACGTCTCATCC | 3360 a.u.
GAATTACTCATTTGTTTCGTGCGATTTCCTATTGCG | 5020 a.u.
CGGGGTTAAGTTTGAGCGGTGGGTGGCTTGCAGCAG | 4070 a.u.
GTAAGTCAAAATCCGCGCGTGACTCGTAAAGCGTTA | 7540 a.u.
AAGCTCAATTCGAGTCACGTGGGTAGAAATATTACA | 16500 a.u.
CATACCCAACCTTGTCACCGAACTTAAGATATTTGT | 3310 a.u.
GTATTCAAGCAAGTACACGTGCGGAAGTTGTACCAG | 18700 a.u.

Study 2 — technique: RNA Bind-n-Seq; molecule type: RNA; medium: in vitro; concentration: not given; notes: RNA with constant flanks, ends assumed; relative to: input RNA pool; reading: higher = stronger binding
Target: RING finger protein unkempt homolog, zinc fingers 1-6, GST-SBP tag (UNK, Homo sapiens, UniProt Q9C0B0, residues 30-357)
Chain of UniProt Q9C0B0 (30-357, looked up): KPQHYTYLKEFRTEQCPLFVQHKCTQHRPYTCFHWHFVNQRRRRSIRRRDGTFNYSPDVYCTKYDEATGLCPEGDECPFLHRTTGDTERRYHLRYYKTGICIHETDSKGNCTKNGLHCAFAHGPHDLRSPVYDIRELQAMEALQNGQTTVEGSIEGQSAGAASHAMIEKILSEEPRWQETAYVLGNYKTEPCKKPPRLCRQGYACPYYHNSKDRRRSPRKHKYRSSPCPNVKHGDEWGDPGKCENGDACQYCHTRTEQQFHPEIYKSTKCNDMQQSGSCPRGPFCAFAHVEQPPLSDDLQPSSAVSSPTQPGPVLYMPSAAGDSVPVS
Shared flanks, not repeated: GGGAGUUCUACAGUCCGACGAUC … CAACAGAGGAUUGAGCAUCA
Strand | bound/input enrichment [ratio]
UUACAUCUCAAUGAAGCAAGGGACUAUGAAGUGUCAGAUAGUGCCCCUCAUCUUGAGGGCCCCGCAGAAUUUCAAGAGAAUGUAAGGAAGACCAACAAUUUUUCAGCUUUUCUUGCCAAU | 0.163
GUCUCAUCUGUAUGCAUCUUAUGCAUGUGAUUCAAUAGACUAGAUCGAUUCUGUGUGGUUUAUCACCGUAGAUACACAAACCAGUCUUUAUUUUUUACUUAAGAAAAUAUAUAAGUGGAA | 0.37
AAAAGAGAAAAUGGUGCUAGAGACAAGUAGUUUAUUUAGUAAGCAGUGUUUUUAUUCCUCCGUCCGAUUUUAAGCUGCUUUUUGUCUUCAGAAGCUUUUAAAAAGAAAAGCGAAUUAGGU | 1.96
GAAUUUGGGCAGGUUUUGGCUUCCUGUUCUUUUGACCGAACAGCUGCUGUAUGGGAAGAAACCGCCGGAGAAUCAAAUGAUAAACUGCGAGGACAGAGCCACUGGGUUAAAAGGACAACU | 0.346
GACCUAAUCCAGGAUGUUGAAUGGGAUUAUUGCCAUCUUACACCAUAUUUUUGUAAAAUGCCGCUUAAUCAUAAUCUCACAAUGAAGAUUUUGCAUCACUUUUGCUAUUAUCAUUCUUUU | 0.119

Study 3 — action: inhibitor; concentration: 20 µM
Target: Replicase polyprotein 1ab, nsp13 helicase (rep, Severe acute respiratory syndrome coronavirus 2, UniProt P0DTD1)
Compound | inhibition
CC1(C)OC2(C)C(O)CC1CC2O (stereo not drawn) | -1.95%
Cc1nc2ccc(Oc3ccc(F)cc3)cc2c(=O)n1C[C@H]1CCCN(C(C)C)C1 | 10.9%
CC(C)=CCC[C@](C)(O)[C@@H]1CC=C(C)CC1 | 3.67%
N#Cc1cn([C@@H]2O[C@H](CO)[C@@H](O)[C@H]2O)c2ncnc(N)c12 | 1.46%
CCN[C@H]1CN(CCCOC)S(=O)(=O)c2sc(S(N)(=O)=O)cc21 | 0.81%
CCC1=C[C@@H]2CN(C1)Cc1c([nH]c3ccccc13)[C@@](C(=O)OC)(c1cc3c(cc1OC)N(C)[C@H]1[C@@](O)(C(=O)OC)[C@H](OC(C)=O)[C@]4(CC)C=CCN5CC[C@]31[C@@H]54)C2 | 2.93%
CO[C@@]1(NC(=O)Cc2cccs2)C(=O)N2C(C(=O)O)=C(COC(N)=O)CS[C@@H]21 | 6.27%
O=C(O)C(O)=Cc1c[nH]c2ccccc12 | 2.66%
Cc1ccsc1/C=C/C1=NCCCN1C | 0.91%
CCCCCCCC/C=C\CCCCCCCC(N)=O | 3.24%
CCCc1ncc(C[n+]2ccccc2C)c(N)n1 | 0.3%
CO/N=C(\C(=O)N[C@@H]1C(=O)N2C(C(=O)O)=C(CSc3nc(C)c(CC(=O)O)s3)CS[C@H]12)c1csc(N)n1 | 64.5%
O=C/C=C/c1ccccc1 | -1.41%
COc1ccc(Nc2nccc(NCCO)n2)cc1 | 4.81%
CC[C@H](C)C(=O)O[C@H]1C[C@@H](C)C=C2C=C[C@H](C)[C@H](CC[C@@H]3C[C@@H](O)CC(=O)O3)[C@H]21 | -1.2%
Cc1cc(C(=O)Nc2nc3cccc(Cl)c3n2[C@@H]2CCCCN(C(=O)/C=C/CN(C)C)C2)ccn1 | 19.7%
C#C[C@]1(O)CC[C@H]2[C@@H]3CCC4=CC(=O)CCC4=C3C=C[C@@]21CC | 10.5%
COc1cc2c(CCNC(C)=O)c[nH]c2cc1Cl | 4.35%
Nc1nc(F)nc2c1ncn2[C@@H]1O[C@H](COP(=O)(O)O)[C@@H](O)[C@@H]1O | 2.71%
COc1ccc(NS(=O)(=O)c2ccc(I)cc2)cc1N1CCN(C)CC1 | 3.16%
O=C(O)c1ccccc1 | -5.65%
Cn1c(=O)c2nc[nH]c2n(C)c1=O | 5.48%
C[C@@H]1O[C@@H](OC[C@H]2O[C@@H](Oc3c(-c4ccc(OCCO)c(OCCO)c4)oc4cc(OCCO)cc(O)c4c3=O)[C@H](O)[C@@H](O)[C@@H]2O)[C@H](O)[C@H](O)[C@H]1O | 7.83%
CSc1ccccc1OCC(O)CNC(C)C (stereo not drawn) | 1.97%
O=C(O[C@H]1C[C@H]2CC[C@@H](C1)[N+]21CCCC1)C(O)(c1ccccc1)c1ccccc1 | -2.61%

Study 4 — cell line: HEK-293T/ACE2; concentration: concentration not given; time: 16 (unit not given); relative to: vehicle
Compound | viability
CCOC(=O)c1ncn2c1CN(C)C(=O)c1cc(F)ccc1-2 | 100%
CC(=O)N(O)CCCCCNC(=O)CCC(=O)N(O)CCCCCNC(=O)CCC(=O)N(O)CCCCCN | 102%
COc1ccc(C(=O)c2ccccc2)c(O)c1 | 104%
CC1=C(C/C=C(\C)CCC[C@H](C)CCC[C@H](C)CCCC(C)C)C(=O)c2ccccc2C1=O | 99.4%

Study 5 — observed: enzyme activity; action: inhibitor; concentration: 20 µM; notes: primary screen
Target: Replicase polyprotein 1ab, main protease (rep, Severe acute respiratory syndrome coronavirus 2, UniProt P0DTD1)
SMILES | inhibition [%]
CCCCCCCCCCCCCCCC[N+](C)(C)Cc1ccccc1 | 55.8
[NH2][Pt]([NH2])([Cl])[Cl] | 100
O=C(N/N=C/c1ccc([N+](=O)[O-])o1)c1cc([N+](=O)[O-])cc([N+](=O)[O-])c1O | 63.8
CC1=NN(c2ccc(C(=O)O)cc2)C(=O)C1=Cc1ccc(-c2cc(C)c(C)cc2[N+](=O)[O-])o1 | 31.6

Study 6 — technique: universal PBM; molecule type: double-stranded DNA, one strand shown; medium: in vitro; concentration: not given; reading: higher = stronger binding
Target: Sal-like protein 4, full length isoform B (SALL4, Homo sapiens, UniProt Q9UJQ4-2, residues 1-616)
Notes: 8-mer, flanks averaged, mean of replicates
Strand | E-score
AATTTCAA | 0.249
CCGCTCTA | -0.0201
GGCACTAC | -0.184
AAAATTCG | 0.295
CTCCAAAC | -0.049
AGCTACAG | -0.122
ATAGTGTC | 0.0617
TATAAGGA | 0.3

For quick reference, copied from above (study 3):
Compound | inhibition
CC(C)=CCC[C@](C)(O)[C@@H]1CC=C(C)CC1 | 3.67%
N#Cc1cn([C@@H]2O[C@H](CO)[C@@H](O)[C@H]2O)c2ncnc(N)c12 | 1.46%
CCN[C@H]1CN(CCCOC)S(=O)(=O)c2sc(S(N)(=O)=O)cc21 | 0.81%
CCC1=C[C@@H]2CN(C1)Cc1c([nH]c3ccccc13)[C@@](C(=O)OC)(c1cc3c(cc1OC)N(C)[C@H]1[C@@](O)(C(=O)OC)[C@H](OC(C)=O)[C@]4(CC)C=CCN5CC[C@]31[C@@H]54)C2 | 2.93%
CO[C@@]1(NC(=O)Cc2cccs2)C(=O)N2C(C(=O)O)=C(COC(N)=O)CS[C@@H]21 | 6.27%
O=C(O)C(O)=Cc1c[nH]c2ccccc12 | 2.66%
Cc1ccsc1/C=C/C1=NCCCN1C | 0.91%
CCCCCCCC/C=C\CCCCCCCC(N)=O | 3.24%
